Assay results from different studies.
Parts stem from different laboratories: compare values within a part only. Positions count from the first letter of the parent shown.

Series 1
Target: ABI1, truncated, D143A, DHFR fusion (Arabidopsis thaliana)
Method: DHFR PCA, deep sequencing
Medium: yeast
Notes: methotrexate growth selection, single substitutions
With: (+)-ABA 58 µM
Relative to: wild-type fitted maximum
Direction: higher = stronger binding
Starting sequence: PYL1, truncated, DHFR fusion (Arabidopsis thaliana); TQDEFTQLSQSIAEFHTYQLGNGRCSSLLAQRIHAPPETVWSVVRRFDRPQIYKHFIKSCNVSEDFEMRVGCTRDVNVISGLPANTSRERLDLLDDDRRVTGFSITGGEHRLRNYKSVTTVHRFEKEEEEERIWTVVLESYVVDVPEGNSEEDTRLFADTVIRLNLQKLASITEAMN
| Variant | relative binding score [%] |
| --- | --- |
| N22Y | 86.2 |
| A170L | 36.5 |
| R155M | 74.6 |
| D144L | 29.7 |
| L169G | -3.14 |
| T101S | 69.8 |
| I133H | 99.4 |
| H34Q | 90.8 |
| T135K | 1.27 |
| S42D | 91.1 |
| K116W | -1.68 |
| N77I | 87.3 |
| N22L | 87.4 |
| S27V | -9.22 |

Series 2
Target: Sal-like protein 4, full length isoform B (SALL4, Homo sapiens, UniProt Q9UJQ4-2, residues 1-616)
Method: universal PBM
Form: double-stranded DNA, one strand shown
Medium: in vitro
Concentration: not given
Notes: 8-mer, flanks averaged, mean of replicates
Direction: higher = stronger binding
| Sequence | E-score |
| --- | --- |
| AACGTTTC | 0.174 |
| AGAGTTCA | -0.0014 |
| AACGACAG | -0.0529 |
| ATGTTTAG | 0.231 |
| GCCAAAGA | -0.0788 |
| GAATCATC | 0.0927 |
| ATTGACCC | 0.104 |
| AAAGAATA | 0.309 |
| AAGCCTAT | 0.161 |
| ATCTATTA | 0.309 |
| AAATGTCC | 0.0961 |
| AAACGGCG | -0.0791 |
| ACTTTATG | 0.255 |
| ACTCCGCC | -0.218 |
| CCGACGAA | -0.0514 |
| ACTAACCC | -0.169 |
| CAAACGAC | -0.0236 |
| CGGCGACA | -0.264 |
| AAAAAGCC | -0.0334 |
| CGCAGAAC | -0.0447 |
| CATAGCGG | -0.128 |
| GTTTGCCA | -0.049 |
| AGCGGAGA | -0.128 |
| CATTAGCC | -0.127 |
| CGACGCGC | -0.0947 |

Series 3
Target: TAR DNA-binding protein 43, full length, His tag (TARDBP, Homo sapiens, UniProt Q13148, residues 1-414)
Method: RNA Bind-n-Seq
Form: RNA
Medium: in vitro
Concentration: 20 nM
Notes: 6-mer, flanks averaged, single round
With: 150 mM LiCl
Relative to: input library
Direction: higher = stronger binding
| Sequence | 6-mer enrichment (R) |
| --- | --- |
| UUGCUU | 1.11 |
| CUUCGG | 0.835 |
| AAGUUU | 1.01 |
| UGAUCC | 0.877 |
| AUAUAU | 1 |
| CAAGGA | 0.842 |
| AAAUUG | 0.962 |
| GCUACA | 0.861 |
| GGCCAA | 0.931 |
| UGCCGA | 0.916 |
| AACACU | 0.811 |
| CGGAGG | 1.08 |
| UAACCC | 0.958 |
| ACCUUC | 0.876 |
| CCGCGA | 0.858 |
| UGUAGC | 1.06 |
| AAUUCA | 0.897 |
| GACCAU | 0.862 |
| AUUCGU | 0.909 |
| ACAAUA | 1.04 |
| ACGCCC | 0.981 |
| CCGACG | 0.849 |

Series 4
Target: Ras GTPase-activating protein-binding protein 1, full length (G3BP1, Homo sapiens, UniProt Q13283)
UniProt Q13283, sequence (whole entry, looked up): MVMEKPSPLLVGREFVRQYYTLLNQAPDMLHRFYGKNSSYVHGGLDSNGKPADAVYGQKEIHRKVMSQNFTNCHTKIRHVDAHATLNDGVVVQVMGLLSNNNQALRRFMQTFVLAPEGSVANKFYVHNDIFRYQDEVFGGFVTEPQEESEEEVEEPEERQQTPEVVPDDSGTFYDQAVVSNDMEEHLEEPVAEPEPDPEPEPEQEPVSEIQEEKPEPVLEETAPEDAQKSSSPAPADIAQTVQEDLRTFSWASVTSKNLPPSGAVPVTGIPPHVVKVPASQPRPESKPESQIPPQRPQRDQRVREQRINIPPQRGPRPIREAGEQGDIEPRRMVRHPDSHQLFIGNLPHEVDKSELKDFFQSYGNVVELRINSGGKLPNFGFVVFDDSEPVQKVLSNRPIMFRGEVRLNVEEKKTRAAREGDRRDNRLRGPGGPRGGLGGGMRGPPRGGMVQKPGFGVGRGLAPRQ
Method: RNA Bind-n-Seq
Form: RNA
Medium: in vitro
Concentration: 200 nM
Notes: whole 134-nt RNA, ends assumed
With: 150 mM LiCl
Relative to: input library
Direction: higher = stronger binding
Each molecule: 7-deaza-guanosine replaces G
All sequences stand within: GGGAGUUCUACAGUCCGACGAUC … UGGAAUUCUCGGGUGUCAAGG
| Sequence | log2 enrichment |
| --- | --- |
| ACCAUGCAGGUGGGCAUCUUUGGGAAGUGGGGCAAGGGGGGGUUAGGGAGGGGGGUAACACUUUGGGAACAGGUGGUCCCAGGUCGUUUC | 0.0368 |
| CUGUGCUACACAUCGUAUGUACCGAAUCGGGAAAAAAAGGGGAAAAAAAGGAAAAAAAGGGAAAGUAUUAUGUUACGCCGUUCGGAUCUG | -0.0192 |
| UAACUUUAGAGGAGGAUCCGAUGGAUAUGGCAGUGGACGUGGAUUUGGGGAUGGCUAUAAUGGGUAUGGAGGAGGACCUGGAGGUGGCAA | 0.0128 |
| UGGCCCUGGUGGCAUGCGGGGAGGAAGAGGUGGCCUCAUGGAUCGUGGUUGUCCCGGUGGAAUGUUCAGAGGUGGCCGUGGUGGAGACAG | 0.361 |
| CUCAAGUCCUGUGCUACACAUCGUAUGUACCGAAUCGGAGGAAAAAGGAAAGGAAAGUAUUAUGUUACGCCGUUCGGAUCUGCACUUCCA | -0.532 |
| ACCAUGCAGGUGGGCAUCUUUGGGAAGUGGGGCAAAGGGGGGAUAGGGAGGGGGGUAACACUUUGGGAACAGGUGGUCCCAGGUCGUUUC | 0.299 |
| AGUCACUUUUUAAUUUUAUUUAUUAUUUCUCCUCUUAGACCGCAGGAUGGAAACAAGCCCACUGAGACUAGUCAACCUCAAUCUAGCACA | 1.55 |
| GUCCUGUGCUACACAUCGUAUGUACCGAAUCAAAUUUUUUUAAACCCAAACCCCCAAAAAAGUAUUAUGUUACGCCGUUCGGAUCUGCAC | 0.844 |
| AAGUCCUGUGCUACACAUCGUAUGUACCGAAUCGGGGCCCGGGGCCCGGGCCCGGGGAAAGUAUUAUGUUACGCCGUUCGGAUCUGCACU | -0.742 |
| GUCCUGUGCUACACAUCGUAUGUACCGAAUCGGGAAAAAAAGGGAAAAAGGGUUUGGGAAAGUAUUAUGUUACGCCGUUCGGAUCUGCAC | -1.95 |
| CCUGUGCUACACAUCGUAUGUACCGAAUCGGGGAAAAAAAGGGGUGGGGUUUUUUUGGGGAAAGUAUUAUGUUACGCCGUUCGGAUCUGC | -0.199 |

Series 5
Target: PABPC1L2, full length, GST fusion (mouse, UniProt A0ABA7IW68)
Method: RNAcompete
Form: RNA
Medium: in vitro
Concentration: 20 nM
Notes: 7-mer, probes averaged, single round
Relative to: mean of 7-mers
Direction: higher = stronger binding
Target sequence (chain): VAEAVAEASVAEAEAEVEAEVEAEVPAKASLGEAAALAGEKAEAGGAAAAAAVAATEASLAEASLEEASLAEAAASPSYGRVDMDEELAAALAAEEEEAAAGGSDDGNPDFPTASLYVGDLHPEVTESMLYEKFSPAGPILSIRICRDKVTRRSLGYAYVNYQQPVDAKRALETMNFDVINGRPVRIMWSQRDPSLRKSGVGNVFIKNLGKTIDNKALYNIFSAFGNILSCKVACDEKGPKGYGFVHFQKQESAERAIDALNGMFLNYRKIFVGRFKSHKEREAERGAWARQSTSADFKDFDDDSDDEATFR
| Sequence | 7-mer Z-score |
| --- | --- |
| GCUCUUA | -0.22 |
| CAGUCAG | -0.209 |
| ACGUGUA | -0.148 |
| ACUAGCC | -0.228 |
| CGAGUAA | 0.0388 |
| AUUGGCA | 0.162 |
| CUGAGUG | -0.0718 |
| GGCACGU | 0.0569 |
| CGGAGAA | 0.363 |
| CCCAUCU | -0.465 |
| GCUUUUC | -0.318 |
| GUCCAUG | -0.264 |
| UCUGUAG | -0.267 |
| ACAAAAA | 21.6 |
| UAAGAAU | 0.0152 |
| GGCCUCU | -0.258 |
| CGUGCCC | -0.291 |
| GCUAACA | -0.119 |

Series 6
Target: Prothrombin, mature alpha-thrombin (F2, Homo sapiens, UniProt P00734)
Method: aptamer microarray, sandwich
Form: DNA with 2'F-ANA
Medium: in vitro
Concentration: 200 nM
Notes: whole 15-mer aptamer, many near background
With: Cy3 exosite-II aptamer, 400 nM
Direction: higher = stronger binding
Sequence: GGTTGGTGTGGTTGG
| Modification | mean fluorescence intensity [a.u.] |
| --- | --- |
| 2'F-ANA at 1 2 3 4 10 12 15 | 78.3 |
| 2'F-ANA at 2 7 8 9 10 12 13 | 175 |
| 2'F-ANA at 6 7 9 11 13 14 | 150 |
| 2'F-ANA at 1 6 12 | 372 |
| 2'F-ANA at 3 4 5 9 11 13 | 64.5 |
| 2'F-ANA at 2 5 8 13 | 54.9 |
| 2'F-ANA at 1 2 3 4 5 8 9 10 11 14 15 | 46.1 |
| 2'F-ANA at 2 6 8 10 12 13 15 | 138 |
| 2'F-ANA at 3 4 | 858 |
| 2'F-ANA at 1 2 4 6 12 13 15 | 170 |
| 2'F-ANA at 1 2 5 10 11 12 13 15 | 74.3 |
| 2'F-ANA at 1 2 7 9 11 12 15 | 294 |
| 2'F-ANA at 2 4 5 6 9 14 | 51.1 |
| 2'F-ANA at 3 4 5 6 8 10 11 12 15 | 58.3 |
| 2'F-ANA at 3 4 8 10 12 13 15 | 281 |
| 2'F-ANA at 2 4 6 9 10 11 15 | 71.3 |
| 2'F-ANA at 2 4 6 7 9 11 | 205 |
| 2'F-ANA at 1 2 3 4 5 12 | 129 |
| 2'F-ANA at 1 2 5 6 7 8 9 12 13 | 78.2 |
| 2'F-ANA at 1 2 4 7 8 9 10 11 13 14 | 43.8 |
| 2'F-ANA at 2 4 6 7 13 | 172 |
| 2'F-ANA at 1 2 4 5 6 11 14 | 45 |
| 2'F-ANA at 1 2 4 8 9 11 13 | 87.2 |
| 2'F-ANA at 1 7 8 12 13 15 | 414 |
| 2'F-ANA at 3 5 9 11 12 15 | 182 |

Repeated from above (series 3):
| Sequence | 6-mer enrichment (R) |
| --- | --- |
| CAAGGA | 0.842 |
| AAAUUG | 0.962 |
| GCUACA | 0.861 |
| GGCCAA | 0.931 |
| UGCCGA | 0.916 |
| AACACU | 0.811 |
| CGGAGG | 1.08 |
| UAACCC | 0.958 |
| ACCUUC | 0.876 |
| CCGCGA | 0.858 |
| UGUAGC | 1.06 |
| AAUUCA | 0.897 |
| GACCAU | 0.862 |
| AUUCGU | 0.909 |
| ACAAUA | 1.04 |
| ACGCCC | 0.981 |
